Published values of several laboratories.
Parts stem from different laboratories: compare values within a part only.

Series 1 — technique: universal PBM; form: double-stranded DNA, one strand shown; medium: in vitro; concentration: 600 nM; reading: higher = stronger binding
Target: Sal-like protein 4, full length isoform A (SALL4, Homo sapiens, UniProt Q9UJQ4, residues 1-1053)
UniProt Q9UJQ4, sequence (whole entry, looked up): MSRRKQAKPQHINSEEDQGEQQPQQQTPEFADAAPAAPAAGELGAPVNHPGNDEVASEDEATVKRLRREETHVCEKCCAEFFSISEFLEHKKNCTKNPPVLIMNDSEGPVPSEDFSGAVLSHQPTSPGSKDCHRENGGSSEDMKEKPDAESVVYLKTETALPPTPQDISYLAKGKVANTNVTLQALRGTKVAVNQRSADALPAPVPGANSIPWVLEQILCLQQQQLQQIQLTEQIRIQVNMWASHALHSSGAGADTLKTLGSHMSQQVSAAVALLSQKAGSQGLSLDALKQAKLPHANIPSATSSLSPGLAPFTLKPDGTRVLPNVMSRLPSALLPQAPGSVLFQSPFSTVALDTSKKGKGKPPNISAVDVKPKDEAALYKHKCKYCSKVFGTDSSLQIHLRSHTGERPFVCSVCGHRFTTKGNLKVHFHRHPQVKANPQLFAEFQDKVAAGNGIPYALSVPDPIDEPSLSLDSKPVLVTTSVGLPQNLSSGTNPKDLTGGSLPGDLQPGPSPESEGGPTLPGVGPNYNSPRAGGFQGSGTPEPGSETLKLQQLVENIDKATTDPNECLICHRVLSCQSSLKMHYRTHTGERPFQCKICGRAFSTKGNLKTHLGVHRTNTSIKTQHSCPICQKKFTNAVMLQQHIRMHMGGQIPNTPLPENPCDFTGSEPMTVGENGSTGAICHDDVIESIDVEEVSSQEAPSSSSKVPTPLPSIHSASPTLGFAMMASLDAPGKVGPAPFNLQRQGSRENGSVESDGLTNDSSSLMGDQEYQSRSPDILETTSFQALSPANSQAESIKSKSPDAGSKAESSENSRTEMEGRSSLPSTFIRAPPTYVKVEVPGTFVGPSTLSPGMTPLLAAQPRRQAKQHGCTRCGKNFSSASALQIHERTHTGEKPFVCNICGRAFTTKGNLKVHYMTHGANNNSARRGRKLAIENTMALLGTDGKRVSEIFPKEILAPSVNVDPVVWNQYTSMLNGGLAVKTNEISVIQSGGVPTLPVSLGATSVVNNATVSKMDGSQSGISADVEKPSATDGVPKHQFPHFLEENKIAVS
Setting: 8-mer, flanks averaged, mean of replicates
The E-score of `ACGCGCGC` is reported as -0.239.
`GCTGTCGA` has an E-score of -0.102.
`CGTCTTAC` has an E-score of 0.0104.
`ACACATCT` gave an E-score of 0.145.
`AGACCGCG` has an E-score of -0.22.
For `AGGAGGGG`, the E-score was -0.16.
For `ACCCGAAG`, the E-score was -0.0912.
`CTCGACGA` gave an E-score of -0.241.
`ATAGCTAT` has an E-score of 0.328.
The E-score of `ATGGCTGG` is reported as -0.23.
With `ACGGCTTG` the E-score was -0.161.
`CACAAGAA` gave an E-score of 0.029.
With `GCCGTTCA` the E-score was -0.219.
With `ATTAGGTA` the E-score was 0.245.
For `CGAGTGCG`, the E-score was -0.234.
`ACGTAGTG` has an E-score of -0.121.
The E-score of `AGGGGAGG` is reported as -0.192.
The E-score of `ACCGGACT` is reported as -0.188.
With `TCGACTCA` the E-score was 0.0983.

Series 2 — technique: RNA Bind-n-Seq; form: RNA; medium: in vitro; concentration: 365 nM; relative to: no-protein control; reading: higher = stronger binding
Target: RNA binding protein fox-1 homolog 2, RRM domain, GST-SBP tag (RBFOX2, Homo sapiens, UniProt O43251-10, residues 100-194)
Setting: natural RNA segment, single round, ends assumed
Residues (chain): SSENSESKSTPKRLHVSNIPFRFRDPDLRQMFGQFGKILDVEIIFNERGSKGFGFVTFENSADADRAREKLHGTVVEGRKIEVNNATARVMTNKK
For `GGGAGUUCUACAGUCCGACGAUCCCAGGACGACUGUGUCAGCAAAGAGCGCAGCUCCUCCAGGUGACCCAGCAAGGCUGUUGUCUGUAUGGAAGGACACGCUCGCGGCAAGGGCAGGGCCUGGGGAGGGUGGCUGGAAUUCUCGGGUGCCAA`, “RBNS enrichment (R)” read 0.321.
Under “RBNS enrichment (R)”, `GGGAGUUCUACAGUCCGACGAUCAUUUAGGUGCUUUCUCUGGCAUCUAUAAAAGUAAAUUCUAGUGCCUGCCAAGUGAUGGAUUAUAAUGGUCUCUAGCAAAUGUGUGGUAAACAUUCAUAUGGCCAUUAAUUUGGAAUUCUCGGGUGCCAA` is recorded as 0.465.
`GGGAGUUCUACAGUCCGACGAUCUCACUGCAGUGUUACCGGAGCUUCCUUCAUUGUGCGCACACGACAAAUCUGAGUUCUUUGGGAAAAAAAUAGAAAUGAAGCAGCCUCCCUUCAUAAUGUGAGCAAUAGUUUGGAAUUCUCGGGUGCCAA` — result for “RBNS enrichment (R)”: 0.901.
Under “RBNS enrichment (R)”, `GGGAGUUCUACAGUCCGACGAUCUAUGCUUUGCCUUAUUUCCACAUUUAAACUACCUGUUAAUAUAAGGGAUUUGUAGUAUCAGCUUGUUGAGCAAUGACUUUGAAUCUAGUUUUCAGUGAUCAGAAGCAGCAUGGAAUUCUCGGGUGCCAA` is recorded as 0.387.
Under “RBNS enrichment (R)”, `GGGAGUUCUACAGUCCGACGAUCUUAUGAUCCACCCCUCUCGGCCUCCCAAAGUGCUGGGAUUACAGGCGUGAGCCACCGCACCCGGCCUCAAAUGGAAAUAUUUCACAGAGGAGUGGUUCAGUUUAGCCCUGUGGAAUUCUCGGGUGCCAA` is recorded as 0.21.
`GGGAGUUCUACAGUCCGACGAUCCAAGGGAAUAACUAGGCUGGUUAAAAGAGUCAGGGCUACUGGAGCCAAGGUGGGGACCUUUGAGGCUAGGUGGGGGUCACCUGCUGCUUCUGAGCUUGGAUUAGAGAAAGUGGAAUUCUCGGGUGCCAA` — result for “RBNS enrichment (R)”: 1.07.
`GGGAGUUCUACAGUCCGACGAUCCAGAUGACCUGCAGAAACAGAACUGUUCAGUAUUGGUUGGACUGCUCAUGGAUUUUGUAGCUGUUUAAAAAAAAAAAAAAGGUAGCUGUGAUACAAACCCCAGGACACCCUGGAAUUCUCGGGUGCCAA` — result for “RBNS enrichment (R)”: 0.368.
`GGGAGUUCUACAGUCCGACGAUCGUGGGGGUCUCCCUACCUACGACUGAGGGCUUUUUAAACUUGGUGCGAAGUUGAACUUUUUUAAGGGGAUAAAAUAAAGAGAAUACAGUUUGACUUUUUGGAAUUUAACAUGGAAUUCUCGGGUGCCAA`: “RBNS enrichment (R)” 0.544.

Series 3 — technique: RNA Bind-n-Seq; form: RNA; medium: in vitro; concentration: not given; relative to: input RNA pool; reading: higher = stronger binding
Target: RING finger protein unkempt homolog, zinc fingers 1-6, GST-SBP tag (UNK, Homo sapiens, UniProt Q9C0B0, residues 30-357)
Setting: RNA with constant flanks, human and mouse sites, ends assumed
Target sequence (chain): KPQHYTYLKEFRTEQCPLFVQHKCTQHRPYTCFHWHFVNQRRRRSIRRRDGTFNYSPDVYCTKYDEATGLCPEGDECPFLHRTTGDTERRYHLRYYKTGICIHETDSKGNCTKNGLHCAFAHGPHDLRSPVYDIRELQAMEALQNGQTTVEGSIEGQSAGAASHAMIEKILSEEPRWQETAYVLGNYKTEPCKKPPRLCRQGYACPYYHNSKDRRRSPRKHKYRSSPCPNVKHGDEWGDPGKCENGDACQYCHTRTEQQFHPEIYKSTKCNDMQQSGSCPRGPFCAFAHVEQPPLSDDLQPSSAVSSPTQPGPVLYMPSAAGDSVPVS
`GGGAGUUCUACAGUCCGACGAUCCUAAUGAAGCCAUCUUCAGGGUUUCUGAGAUUACUGCUAUUCAUAAUUGAUGAUGCUAAUUAUUGAUAUGUUGAGAAAGCCAAAGCUUAAGUAGCCUGCUCAGCUUAACUUCUUGCCAUUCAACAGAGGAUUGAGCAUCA` has a bound/input enrichment of 0.176 ratio.
For `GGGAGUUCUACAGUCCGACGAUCACUUAUCUUUUUCUUUUUUCUAACUAAAAUUGUGAUGUUACAGAAAGUCAUUUUAUGUUCCUUUUUUGUCUGAUGAUCCAAUAUUUACUGAACUUUUUGUAAUUGGUGAUAAUUCUUUUUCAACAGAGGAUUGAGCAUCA`, the bound/input enrichment was 1.44 ratio.
`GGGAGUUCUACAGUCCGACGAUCUCGCCGACCACCAUGCCCUGCCCGCCGCCGCCCAGCCCCACCAUGGCUGCCGAGGGCGACUGGGCACGCCUGUUGGAGCAGAUGGGUGAGCUGGCCAUGCGGGGCAGCCAGCGGGAGCUGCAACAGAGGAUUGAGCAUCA` gave a bound/input enrichment of 0.103 ratio.
`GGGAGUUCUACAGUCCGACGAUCAAGUGUCUUUUCAUUCAGGGAAAACUGUUGUUUGCCGAGCCCAAGGAUGCGGGCUUUCCAUUUAGCCAGGAUAUCAAUAGCCAUUUGGCCAGCCUCUCAAUGGCUAGAAACACGAGCCCCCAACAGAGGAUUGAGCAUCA` has a bound/input enrichment of 0.243 ratio.
The bound/input enrichment of `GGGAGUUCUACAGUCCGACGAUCAGGAUCCUCCGCCUGGACCGCCUUCUGGUCCCUCGAAGCCGGCCCACGGAACCAGCGGAUCCUCAAUCUAGUCCUGUCCCGUUGCCCCCUCCUUUCUCUAUCGUCCCUACUGCGGGGUUCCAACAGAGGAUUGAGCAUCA` is reported as 0.152 ratio.
The bound/input enrichment of `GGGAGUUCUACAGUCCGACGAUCUAGAGUGAGGCCUGAGUACUGCCUUGGCCUAGGAUGGCUAGAGAAUUAAGUGAAAGCACAGCCCUGGAUGCCCAGUCUACAGAAGACCAGAUGGAGCUUCUGGUCAUAAAGGUGGAGGAACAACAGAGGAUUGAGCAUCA` is reported as 1.29 ratio.
With `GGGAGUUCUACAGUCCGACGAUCACUUGGGGCUCUGCAGGACCUUCUCUGUCCAGCGCCCCCUUUCUGUUGUGCGAUUAGUUGUAGCUGCCAUGCUCAGAAUUGCCUUUUGAGAGCUGAAGCAAGGUGCUUACUGUCACCUGACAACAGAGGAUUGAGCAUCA` the bound/input enrichment was 0.0956 ratio.
The bound/input enrichment of `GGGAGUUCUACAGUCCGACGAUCAGCGUUCAGGAAUUCAUGACCUUCACGAGUCAACUGAUUGUGGAGCGCUCAUCGAAAGGCACUAGAGCUUCUGUCAAAGAACAAGACUAUCUGUGCCACGUCUACGUCCGGAAUGAUAGUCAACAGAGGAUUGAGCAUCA` is reported as 0.043 ratio.

Series 4 — target: UBE2T UBC core domain (UniProt Q9NPD8); technique: yeast two-hybrid; medium: yeast; setting: mostly zero background; relative to: not given; reading: higher = stronger interaction
B1: RNF5 RING domain (UniProt Q99942); chain ERGGAGATFECNICLETAREAVVSVCGHLYCWPCLHQWLETRPERQECPVCKAGISREKVVP
B2: TRIM38 RING domain (UniProt O00635); chain STKKMMEEATCSICLSLMTNPVSINCGHSYCHLCITDFFKNPSQKQLRQETFCCPQCRAPFHMDSLRP
B3: PEX2 RING domain (UniProt P28328); chain DNTLATSGKECALCGEWPTMPHTIGCEHIFCYFCAKSSFLFDVYFTCPKCGTEVHSLQPLK
B4: TRIM55 RING domain (UniProt Q9BYV6); chain TMDNLEKQLICPICLEMFTKPVVILPCQHNLCRKCASDIFQASNPYLPTRGGTTMASGGRFRCPSCRHEVVLDRHG
B5: MSL2 RING domain (UniProt Q9HCI7); chain LLPYFRQSLSCCVCGHLLQDPIAPTNSTCQHYVCKTCKGKKMMMKPSCSWCKDYEQFEENKQ
B6: RNF32 RING domain (UniProt Q9H0A6); chain SLLQGDSVQPCPICKEEFELRPQVLLSCSHVFHKACLQAFEKFTNKKTCPLCRKNQYQTRVIH
B7: TRIM35 RING domain (UniProt Q9UPQ4); chain PSRSFKEELLCAVCYDPFRDAVTLRCGHNFCRGCVSRCWEVQVSPTCPVCKDRASPADLRT
B8: TRIM15 RING domain (UniProt Q9C019); chain SLKVVHELPACTLCAGPLEDAVTIPCGHTFCRLCLPALSQMGAQSSGKILLCPLCQEEEQAETPMA
B9: RNF14 RING domain (UniProt Q9UBS8); chain IKCFNSKLFLCSICFCEKLGSECMYFLECRHVYCKACLKDYFEIQIRDGQVQCLNCPEPKCPSVATPGQVK
Construct (chain): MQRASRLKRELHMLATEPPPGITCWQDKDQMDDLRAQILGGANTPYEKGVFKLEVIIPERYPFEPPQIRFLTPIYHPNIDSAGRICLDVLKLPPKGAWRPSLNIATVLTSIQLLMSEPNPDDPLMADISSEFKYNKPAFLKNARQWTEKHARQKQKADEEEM
For `B1 (RNF5 RING domain)`, “lacZ reporter activity” read 0.
`B2 (TRIM38 RING domain)`: “lacZ reporter activity” 0.
`B3 (PEX2 RING domain)`: “lacZ reporter activity” 0.
For `B4 (TRIM55 RING domain)`, “lacZ reporter activity” read 0.
`B5 (MSL2 RING domain)`: “lacZ reporter activity” 0.
For `B6 (RNF32 RING domain)`, “lacZ reporter activity” read 0.
For `B7 (TRIM35 RING domain)`, “lacZ reporter activity” read 0.
Under “lacZ reporter activity”, `B8 (TRIM15 RING domain)` is recorded as 0.
For `B9 (RNF14 RING domain)`, “lacZ reporter activity” read 0.

Series 5 — technique: protein-binding microarray; form: double-stranded DNA, one strand shown; medium: in vitro; concentration: not given; reading: higher = stronger binding
Target: Transcription factor Sp1 (SP1, Homo sapiens, UniProt P08047, residues 1-785, full length assumed)
UniProt P08047, sequence (whole entry, looked up): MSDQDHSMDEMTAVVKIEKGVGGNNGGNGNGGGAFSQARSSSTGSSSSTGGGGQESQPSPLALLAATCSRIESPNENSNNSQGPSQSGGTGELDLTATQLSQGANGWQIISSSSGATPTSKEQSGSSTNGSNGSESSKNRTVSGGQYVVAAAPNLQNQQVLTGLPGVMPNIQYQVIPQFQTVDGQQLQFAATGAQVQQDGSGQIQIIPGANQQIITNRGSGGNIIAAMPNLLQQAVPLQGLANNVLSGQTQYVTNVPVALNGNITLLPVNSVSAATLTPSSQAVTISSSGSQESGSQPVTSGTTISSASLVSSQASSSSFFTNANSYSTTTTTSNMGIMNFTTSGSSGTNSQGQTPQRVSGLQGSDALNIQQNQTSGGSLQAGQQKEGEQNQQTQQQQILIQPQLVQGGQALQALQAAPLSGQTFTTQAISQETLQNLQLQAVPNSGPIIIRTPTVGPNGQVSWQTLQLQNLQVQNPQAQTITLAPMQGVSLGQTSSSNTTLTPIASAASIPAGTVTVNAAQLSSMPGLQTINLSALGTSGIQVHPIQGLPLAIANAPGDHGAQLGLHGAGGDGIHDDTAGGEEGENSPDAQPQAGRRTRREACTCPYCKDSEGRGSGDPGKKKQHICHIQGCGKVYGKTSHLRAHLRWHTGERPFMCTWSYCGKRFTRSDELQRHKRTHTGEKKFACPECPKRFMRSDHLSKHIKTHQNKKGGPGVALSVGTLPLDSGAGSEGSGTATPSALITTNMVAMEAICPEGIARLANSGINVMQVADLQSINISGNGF
Setting: k-mer, scored over probes, only values ≥0.25
For `ATCCGCCC`, the E-score was 0.382.
For `CACCCACC`, the E-score was 0.393.
The E-score of `AGAGGGCG` is reported as 0.293.
The E-score of `CCACACCC` is reported as 0.435.
For `ATGTTTAC`, the E-score was 0.26.
`AAGTGGGA` has an E-score of 0.295.
`CGCCCACA` has an E-score of 0.44.
The E-score of `AGGGGTTG` is reported as 0.373.
With `AATGAACA` the E-score was 0.259.
With `CGGTAACA` the E-score was 0.255.
`AATGTGGG` gave an E-score of 0.36.
With `GGGTAATA` the E-score was 0.273.

A few entries again (series 1):
`GCTGTCGA` has an E-score of -0.102.
`CGTCTTAC` has an E-score of 0.0104.
`ACACATCT` gave an E-score of 0.145.
`AGACCGCG` has an E-score of -0.22.
For `AGGAGGGG`, the E-score was -0.16.
For `ACCCGAAG`, the E-score was -0.0912.
`CTCGACGA` gave an E-score of -0.241.
